Measured values collected from several papers.
Each numbered part is a random draw from the data of one study; scales do not carry over between parts.

Sample 1 — technique: RNA Bind-n-Seq; form: RNA; medium: in vitro; concentration: 200 nM; setting: whole 134-nt RNA, ends assumed; together with: 150 mM LiCl; relative to: input library; reading: higher = stronger binding; quantity: log2 enrichment; each molecule: 7-deaza-guanosine replaces G
Target: Ras GTPase-activating protein-binding protein 1, full length (G3BP1, Homo sapiens, UniProt Q13283)
Chain of UniProt Q13283 (whole entry, looked up): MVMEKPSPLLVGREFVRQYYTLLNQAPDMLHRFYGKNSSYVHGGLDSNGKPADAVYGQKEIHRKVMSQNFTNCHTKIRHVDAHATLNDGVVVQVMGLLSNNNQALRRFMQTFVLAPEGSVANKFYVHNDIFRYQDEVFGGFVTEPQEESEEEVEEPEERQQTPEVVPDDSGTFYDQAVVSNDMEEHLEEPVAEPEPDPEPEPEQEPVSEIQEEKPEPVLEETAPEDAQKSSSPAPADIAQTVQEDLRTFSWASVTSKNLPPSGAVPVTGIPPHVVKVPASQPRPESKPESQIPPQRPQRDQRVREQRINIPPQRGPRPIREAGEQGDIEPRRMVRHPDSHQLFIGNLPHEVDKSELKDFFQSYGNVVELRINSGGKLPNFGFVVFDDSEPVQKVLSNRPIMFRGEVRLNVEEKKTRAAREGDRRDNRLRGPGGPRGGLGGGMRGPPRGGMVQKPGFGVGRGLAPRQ
Shared flanks, not repeated: GGGAGUUCUACAGUCCGACGAUC … UGGAAUUCUCGGGUGUCAAGG
GCAGGAAGUAAAAACAAAUGGAAAUGCUUCGGAUAAAGGCAGGGGUGGGGGUUGCUAAGGAAAGGGUGGGAUGGGAGUGGGUAAAGAGUU: -0.261
AAGUCCUGUGCUACACAUCGUAUGUACCGAAUCGGGGAAAGGGGAAAGGGAAAGGGGAAAGUAUUAUGUUACGCCGUUCGGAUCUGCACU: 0.829
GUCCUGUGCUACACAUCGUAUGUACCGAAUCGGUUUUUUUGGUUUUUGGAAAAAAAGGAAAGUAUUAUGUUACGCCGUUCGGAUCUGCAC: -1.8
UGGUCCUGGUGGCAUGCGGGGAGGAAGAGGUGGCCUCAUGGAUCGUGGUGGUCCCGGUGGAAUGUUCAGAGGUGGCCGUGGUGGAGACAG: 0.274
UCCCAGCCGAGGACGUCGGAUGUCAUCGUCCUUGCUGCUUUGCCACCCCAUUCCCGUCAAUAAAGUGGUUUGAACCCAACCCUGGUGUCG: -0.902
AGUCCUGUGCUACACAUCGUAUGUACCGAAUCGGGGAAAAGGGGAAAAGGGAAAAGGAAAGUAUUAUGUUACGCCGUUCGGAUCUGCACU: -0.631
UGUGACAGGAGAGCGCUUGAAGAGCAAUGUGACGAGGACCAUCAGACACCGAGGGAUGGAGAGACAUCCCACAGGGCCCAGAUUCAGCAG: -0.11
GCACGAAGUAAAAACAAAUGGAAAUGCUUCGGAUAGUGGCAGGGGUGGGGGUUGCUAAGGAAAGGGUGGGAUGGGAGUGGGUAAAGAGUU: 0.0217
UCCUGUGCUACACAUCGUAUGUACCGAAUCGGGGUUUUUGGGGUUUGGGGAAAAAGGGGAAAGUAUUAUGUUACGCCGUUCGGAUCUGCA: -0.404
CACAGACAACACGCACCCACACAGACACAGAGGGAAGGGGUUGGGAUGGGGACAGGGUGCAGAGCAGGGCGGGGUAGGACCCCAGCCCCU: -0.188
AAGUCCUGUGCUACACAUCGUAUGUACCGAAUCGGCCCCGGCCCCGGGGCCCCGGGAAAGUAUUAUGUUACGCCGUUCGGAUCUGCACUU: -2.39

Sample 2 — technique: protein-binding microarray; form: double-stranded DNA, one strand shown; medium: in vitro; concentration: 250 nM; setting: 60-bp whole probe; together with: salmon DNA 0.4 mg/ml; relative to: random background probes; reading: higher = stronger binding; quantity: log fluorescence; shared flanks, not repeated: GCCTAGCAC … GTCTTGATTCGCTTGACGCTGCTG
Target: Interferon regulatory factor 7, full length, phosphomimetic (IRF7, Homo sapiens, UniProt Q92985, residues 1-503, S101K/S471D/S472D/S475D/S476D/S477D/S483D/S484D/S487D)
Target sequence (chain): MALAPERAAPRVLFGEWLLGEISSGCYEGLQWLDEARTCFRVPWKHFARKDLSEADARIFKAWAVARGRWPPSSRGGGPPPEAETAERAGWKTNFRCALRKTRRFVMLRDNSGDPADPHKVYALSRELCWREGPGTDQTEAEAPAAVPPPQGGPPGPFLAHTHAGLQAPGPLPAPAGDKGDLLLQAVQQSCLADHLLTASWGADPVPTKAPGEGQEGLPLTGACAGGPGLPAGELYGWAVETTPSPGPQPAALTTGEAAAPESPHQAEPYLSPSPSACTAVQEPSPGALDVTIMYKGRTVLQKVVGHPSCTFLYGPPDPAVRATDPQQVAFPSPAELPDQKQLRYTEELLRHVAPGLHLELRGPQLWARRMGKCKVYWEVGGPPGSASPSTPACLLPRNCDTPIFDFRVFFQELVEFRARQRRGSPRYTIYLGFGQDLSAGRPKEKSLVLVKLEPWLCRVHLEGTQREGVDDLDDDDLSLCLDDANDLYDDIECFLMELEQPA
TTAGGTCTCGGTTTCGGTAAGTGCTAG: 8.52 z-score
TTAGATATAGGGTTTCGATTAGTGCTA: 5.98 z-score
TTAGGACTGGCCTTTCGGTTAGTGCTA: -0.28 z-score
CATTTTCTAAATTCCCTAGTGTGCTAG: 3.1 z-score
TCATAGTTTCTTTTCTTACTGTGCTAG: 5.24 z-score
GACGGTATCGTGTATCGGGACGTGCTA: -0.191 z-score
TCACCAATCAGGACTCAGACTGTGCTA: -0.0381 z-score
CAGTAGATGGCGCCTGAGAGGTGCTAG: -0.553 z-score
TTAGGAGTGCTTCTCCTTTAGTGCTAG: -0.429 z-score
TTAGGTCTCCTTATCCATTAGTGCTAG: 0.385 z-score
GACGGTATCGACTCTGGGGACGTGCTA: 0.136 z-score
TTAGATATCGGGTCTGGATTAGTGCTA: -0.222 z-score
TCAGTTTTTCATTTTTTACTGTGCTAG: 1.08 z-score
GACGAAGTGAGTCTCGAGACGTGCTAG: 0.389 z-score
TTTTTTTCCTAATTGAACCCGTGCTAG: 2.36 z-score
GACGGTATCGGGCTGGGGACGTGCTAG: -0.199 z-score
TTTTGTTTTTCATTATTGTCGTGCTAG: 2.3 z-score
TCATGTATATCTTCAGCACTGTGCTAG: -0.0262 z-score
TTAGGACTGGACACTGGGCTAGTGCTA: -0.397 z-score
TTAGGTTTCGTACTGCTTTAGTGCTAG: 5.72 z-score
GACGGTATCGACTTTCGCGACGTGCTA: 0.983 z-score
TTAGGTTTCCTTATTCTTTAGTGCTAG: 2.16 z-score
TTAGGAATCCTTCTCCTTTAGTGCTAG: -0.0842 z-score
GACGATATCAGTCTCGAGGCGTGCTAG: 0.0617 z-score
TCATACCTCATCTTCCTCACTGTGCTA: 1.09 z-score

Sample 3 — technique: protein binding microarray; form: double-stranded DNA, one strand shown; medium: in vitro; concentration: not given; relative to: not given; reading: higher = stronger binding; quantity: E-score
Target: Histone acetyltransferase KAT6A, winged helix 1, GST fusion (KAT6A, Homo sapiens, UniProt Q92794, residues 1-85)
Setting: 8-mer, flanks averaged, mean of 2 arrays, mostly near background
Target sequence (chain): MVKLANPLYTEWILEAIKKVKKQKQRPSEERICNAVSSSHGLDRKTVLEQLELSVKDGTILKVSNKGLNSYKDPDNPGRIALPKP
ATTCGTGC: -0.129
GTCGTTTA: 0.0787
CTCGAACA: -0.225
ACCTTTGA: -0.141
GAGTCCTA: -0.137
ACGGAACT: 0.154
GATTTTTA: -0.107
CTCAGTGA: -0.242
AAGCGGGT: 0.292
CGGGACAC: 0.216
CTGTCCTA: -0.345
ACATCTTC: -0.0684
CGTCAGGC: 0.103
GCTTATGA: -0.0689
ATAGGGAC: -0.0439
TGCGGTAA: 0.256
CGCAGAAC: 0.261
CGCCGACG: 0.45
ATGGGGTC: -0.046
CTAGACTC: -0.0159
CCTACGGC: 0.346
AAAGTGTG: -0.238
GTAGTTGA: -0.0675
GTAGCCCA: -0.176
TGAAGTAA: -0.155

Sample 4 — technique: universal PBM; form: double-stranded DNA, one strand shown; medium: in vitro; concentration: 600 nM; reading: higher = stronger binding; quantity: E-score
Target: Sal-like protein 4, full length isoform A (SALL4, Homo sapiens, UniProt Q9UJQ4, residues 1-1053)
Chain of UniProt Q9UJQ4 (whole entry, looked up): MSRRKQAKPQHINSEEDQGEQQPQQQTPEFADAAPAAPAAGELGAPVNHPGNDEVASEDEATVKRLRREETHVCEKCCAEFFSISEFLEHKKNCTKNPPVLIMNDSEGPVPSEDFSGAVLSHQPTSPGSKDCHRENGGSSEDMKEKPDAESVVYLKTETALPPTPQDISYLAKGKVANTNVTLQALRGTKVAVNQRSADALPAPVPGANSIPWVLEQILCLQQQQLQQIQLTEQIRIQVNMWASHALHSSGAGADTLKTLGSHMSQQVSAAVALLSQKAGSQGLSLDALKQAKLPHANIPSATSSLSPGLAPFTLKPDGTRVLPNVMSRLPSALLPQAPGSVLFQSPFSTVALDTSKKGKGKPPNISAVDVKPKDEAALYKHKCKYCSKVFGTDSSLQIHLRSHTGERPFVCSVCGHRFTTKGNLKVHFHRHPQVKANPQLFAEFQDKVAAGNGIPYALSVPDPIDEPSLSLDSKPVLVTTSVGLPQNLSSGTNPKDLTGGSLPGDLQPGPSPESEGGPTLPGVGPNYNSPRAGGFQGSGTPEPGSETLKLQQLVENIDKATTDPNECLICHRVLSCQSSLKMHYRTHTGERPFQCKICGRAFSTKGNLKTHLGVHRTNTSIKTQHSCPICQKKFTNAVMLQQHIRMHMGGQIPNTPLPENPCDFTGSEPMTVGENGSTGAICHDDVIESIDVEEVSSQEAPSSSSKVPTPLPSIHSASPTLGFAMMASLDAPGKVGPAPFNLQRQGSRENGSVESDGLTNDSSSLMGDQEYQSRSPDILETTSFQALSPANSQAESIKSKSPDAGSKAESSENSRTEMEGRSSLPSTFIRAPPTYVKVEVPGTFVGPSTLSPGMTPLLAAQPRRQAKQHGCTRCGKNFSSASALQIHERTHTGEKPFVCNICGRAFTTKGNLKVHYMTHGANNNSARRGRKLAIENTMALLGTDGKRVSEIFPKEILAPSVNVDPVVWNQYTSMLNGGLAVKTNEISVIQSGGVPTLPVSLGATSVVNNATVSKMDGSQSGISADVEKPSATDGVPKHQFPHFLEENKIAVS
Setting: 8-mer, flanks averaged, mean of replicates
GACGAGTA: 0.00426
AAGTGCGT: -0.105
CGCCTATA: 0.0138
AGAGTTAT: 0.257
CGACATAG: -0.0387
AGGGACGG: -0.315
GACGTCTA: -0.0948
ATTTGTTC: 0.304
GCTCATTA: 0.108
CGGCGACC: -0.288
AGTTGTCA: 0.0674
ACTTCGCT: -0.0852
CGTATAAG: 0.153
AACACATT: 0.272
ACATTAAC: 0.222
CCTGATCA: -0.00603
ACTGCGCG: -0.264
CTCGTGCA: 0.0344
AAACTCTG: 0.0831
CCAGTAAA: 0.171

Sample 5 — technique: RNA Bind-n-Seq; form: RNA; medium: in vitro; concentration: 365 nM; relative to: no-protein control; reading: higher = stronger binding; quantity: RBNS enrichment (R)
Target: RNA binding protein fox-1 homolog 2, RRM domain, GST-SBP tag (RBFOX2, Homo sapiens, UniProt O43251-10, residues 100-194)
Setting: natural RNA segment, single round, ends assumed
Shared flanks, not repeated: GGGAGUUCUACAGUCCGACGAUC … UGGAAUUCUCGGGUGCCAA
Residues (chain): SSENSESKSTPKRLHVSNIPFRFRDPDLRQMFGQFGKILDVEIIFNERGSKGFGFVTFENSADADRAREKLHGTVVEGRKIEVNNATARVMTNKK
AAGCCAUUUCAGAGUUUGGCUGCUGCUCUGACCCUGCUGUGGUACAAAAAACAUGGAUUUUUUUUUUUUUAACUGGAGUAAUACCAAAUUCCCUUUAGAAGCUUGAAGUU: 0.686
UCCCCACCAUCCUGGGGAAGUGAUGGUGUGGCCAGGCAGUUAUAGAUUAAAGGCCUGUGAGUACUGCUGAGCUUGGUGUGGCUUGGUGUGGCAGAAGGCCUGGCCUAGGA: 0.848
GGCUCCACAUUAGGUCACCUGUGCACAGCCAUGGCUGGAAUGAUGAAGGGGAUACGCUGGAGUUGCCCUGCCAUCGCCUCCAUCAGCCAGACGAGGUCCUCACAGGAGAA: 0.223
GCGCAGACAGUUGGGACGAAACUUCAGAGCCCAGGCAGUCCCUGAAUGACCAGGCCAGUGUUGUCACUGAGUGGUCCCCUGCUGGUUGGGAGUGAAGAGAAUCCAGGCUG: 0.302
GUGGAUAUCUGCUUCCAUGACAGAACCUCUUGAGCACGCAGAGGGAGUGGCCACACCGCCUGUUGGAGAGGUCACUGAAAAAGACAUCACUGCAGAAGCAACUCCUGCAC: 8.96
CACCAGCAGAGUAGCCGCCGCUGCUGUGAGCCUGGGGACGACAUGGCAGGCUGGUCCCCCUCCGUGAAAGUGUGGAUUCCUACUUCCUGCUCUAAGCUUUGACACGUCAA: 0.558
ACACUGAAUUGUAUUUAAUCAGCGUGUAUUCCAUUUGCAUUGAAGCAUUAAAGAUUAUUUUCCUUAAAUCUCUUCAAGGCCUUCUUAUUGCUGUUAGAAUAGUGUUGUAU: 0.288
CUGUAAGGAUGAGCCCAGUUAGUAAGGAUGUUGGUAAUCAGCAGAGACCAUUCUCAAGGGUAGGUGUUCUGCAGCCCCGAAUCAAAUCAUGUGAAAACCCCUUAAAUGAU: 0.558
AUACUGUGACUUCACCUAGAUCUUCUACCAAGCUGAAGACCCUGCUGGCUCUGAAACAAUCCUUGCAGUUACUCCCCAGCUGUUCGUCUGGACAGCUCAUUCAAGUGGAU: 0.27
CCAGGAUGCAGCAAGCAGCAGCAGGGGCUGACAGCAGGCUUACUGCCAUCAACAUUGCUUGAAAUGCCUCUAUGUUCUGAAUAAAGAAAAACCAUAAUUGCUUGUGGUGA: 0.516
AUUAAAUAUUGGUUCAUUUUUUUUCCAUGUUGUGGAGACACCAAGAUGAACGCAGCAUGAAUCUCAUUUCCAUUUCUAAGCAGCUGGGUGGUGCGGCGAUUCUUUAGUUC: 1.8
GGCUACCAGAACAUGGGGCAGGUGGCUGGUGUUGGUGUCCCAGCCUAAGAGCCACCUGCUGCAGUUACCAUGGCAUGCUGAGUUGAUGCACCAGGUGGCAGCAGCCAUCC: 0.313

For quick reference, copied from above (sample 2):
CATTTTCTAAATTCCCTAGTGTGCTAG: 3.1 z-score
TCATAGTTTCTTTTCTTACTGTGCTAG: 5.24 z-score
GACGGTATCGTGTATCGGGACGTGCTA: -0.191 z-score
TCACCAATCAGGACTCAGACTGTGCTA: -0.0381 z-score
CAGTAGATGGCGCCTGAGAGGTGCTAG: -0.553 z-score
TTAGGAGTGCTTCTCCTTTAGTGCTAG: -0.429 z-score
TTAGGTCTCCTTATCCATTAGTGCTAG: 0.385 z-score
